Experimental data of several laboratories.
Compare with care: the assays were run in different laboratories. Numbers after ± are the reported error.
CNR1: Cannabinoid receptor 1 (CNR1, Homo sapiens, UniProt P21554)
Chain of UniProt P21554 (whole entry, unmodified, looked up): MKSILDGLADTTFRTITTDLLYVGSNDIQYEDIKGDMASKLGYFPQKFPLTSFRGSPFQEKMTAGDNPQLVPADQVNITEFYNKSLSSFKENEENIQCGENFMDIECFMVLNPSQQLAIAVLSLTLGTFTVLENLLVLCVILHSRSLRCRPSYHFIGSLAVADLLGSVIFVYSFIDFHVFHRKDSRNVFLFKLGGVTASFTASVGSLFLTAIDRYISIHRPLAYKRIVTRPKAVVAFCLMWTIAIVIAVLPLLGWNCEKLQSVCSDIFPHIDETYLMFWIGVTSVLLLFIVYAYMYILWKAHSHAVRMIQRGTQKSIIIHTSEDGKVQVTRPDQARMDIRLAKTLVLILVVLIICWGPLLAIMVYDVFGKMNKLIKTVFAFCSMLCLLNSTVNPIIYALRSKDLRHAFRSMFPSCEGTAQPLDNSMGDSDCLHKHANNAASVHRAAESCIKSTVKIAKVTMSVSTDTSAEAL

`CCCCC/C=C\C/C=C\C/C=C\Cc1ccccc1CCCC(=O)N[C@H](C)CO` gave an Emax of 92% (CNR1; cAMP, agonist; 10 µM, highest concentration tested).
The inhibition of `CN1CCN(c2cc(-c3ccncc3)c(-c3ccc4ccccc4c3)nn2)CC1` is reported as -3.5% (CNR1; antagonist, FLIPR; 10 µM).
`CCCCCCC(C)(C)c1ccc([C@@H]2C[C@H](O)CC[C@H]2CCCO)c(O)c1` has a Hill coefficient of 0.9 (CNR1; binding, agonist, radioligand binding).
For `COC(=O)[C@@H](NC(=O)c1nn(Cc2ccc(F)cc2)c2ccccc12)C(C)(C)C`, the Emax was 96 ± 8% (CNR1; β-arrestin-1 recruitment, agonist; reference: compound maximum).
`CCCCCCC(C)(C)c1ccc([C@@H]2C[C@H](O)CC[C@H]2CCCO)c(O)c1` gave an Emax of 57.7 ± 5.2% (CNR1 (Homo sapiens, UniProt P21554, H178A); Gαi1 engagement, agonist, BRET; TM2 mutant H178A; reference: wild type receptor).
Under “adenylyl cyclase activity increase”, `CC/C(=C(\c1ccc(O)cc1)c1ccc(OCCN(C)C)cc1)c1ccccc1` is recorded as 17% (CNR1; measured: cAMP; CHO-hCB1 cells; 10 µM; reference: basal).
`CCCCC/C=C\C/C=C\C/C=C\Cc1ccccc1CCCC(=O)OC(CO)CO` has an Emax of 15% (CNR1; cAMP, agonist; 10 µM, highest concentration tested).
`O=c1ccc2ccccc2o1` gave an inhibition of 1.68% (CNR1; agonist radioligand binding; 10 µM, SafetyScreen44).
The displacement of `CCC(CC)(NC(=O)c1ccc(N2CC(OC)C2)c(OC[C@H]2C[C@@H]2CO)n1)C(=O)NCCOCCOCCNC(=O)c1ccc2c(c1)C1(OC2=O)c2ccc(N(C)C)cc2[Si](C)(C)c2cc(N(C)C)ccc21` is reported as 21 ± 4% (CNR1; binding; CHO membranes; 10 µM, with: [3H]CP55940).
The Emax of `CCCCC/C=C\[C@H](C)/C=C\C/C=C\Cc1ccccc1CCCC(=O)OC(CO)CO` is reported as 34% (CNR1; cAMP, agonist; 10 µM, highest concentration tested).
The Emax of `COC(=O)[C@@H](NC(=O)c1nn(Cc2ccc(F)cc2)c2ccccc12)C(C)C` is reported as 99.91 ± 0.15% (CNR1; Gαi protein dissociation, agonist).

Repeated from above:
`O=c1ccc2ccccc2o1` gave an inhibition of 1.68% (CNR1; agonist radioligand binding; 10 µM, SafetyScreen44).
